Published values gathered from unrelated publications.
Every numbered part comes from another study and shows a few of its results, in no order.

Study 1 — technique: RNA Bind-n-Seq; molecule type: RNA; matrix: in vitro; tested at: 1 µM; notes: whole 134-nt RNA, ends assumed; added: 150 mM KCl; reference: input library; reading: higher = stronger binding
Target: Ras GTPase-activating protein-binding protein 1, RRM domain (G3BP1, Homo sapiens, UniProt Q13283)
UniProt Q13283, sequence (whole entry, looked up): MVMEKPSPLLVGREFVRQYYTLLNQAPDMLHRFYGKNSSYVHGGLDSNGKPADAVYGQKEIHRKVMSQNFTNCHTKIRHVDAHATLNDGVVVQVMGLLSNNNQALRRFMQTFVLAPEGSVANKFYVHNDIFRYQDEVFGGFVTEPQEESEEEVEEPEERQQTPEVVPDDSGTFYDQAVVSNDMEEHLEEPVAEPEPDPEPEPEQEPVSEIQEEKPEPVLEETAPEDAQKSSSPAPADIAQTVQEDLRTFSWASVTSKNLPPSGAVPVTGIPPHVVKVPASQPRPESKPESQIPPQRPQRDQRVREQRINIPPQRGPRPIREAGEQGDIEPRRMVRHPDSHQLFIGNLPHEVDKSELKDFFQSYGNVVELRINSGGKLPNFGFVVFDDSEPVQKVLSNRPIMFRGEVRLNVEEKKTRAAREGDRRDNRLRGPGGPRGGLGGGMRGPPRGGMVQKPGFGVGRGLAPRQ
Oligonucleotide	log2 enrichment
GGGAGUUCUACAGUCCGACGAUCAAGUCCUGUGCUACACAUCGUAUGUACCGAAUCGGAAAAAGGAAAAAGGUUUUUGGAAAGUAUUAUGUUACGCCGUUCGGAUCUGCACUUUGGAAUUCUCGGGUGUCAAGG	-0.159
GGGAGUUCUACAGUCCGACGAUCCCUGUGCUACACAUCGUAUGUACCGAAUCGGGGAAAAAAGGAAAAAAGGGGAAAAAAGGGAAAGUAUUAUGUUACGCCGUUCGGAUCUGCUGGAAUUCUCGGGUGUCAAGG	0.00108
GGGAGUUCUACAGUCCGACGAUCCUGUGCUACACAUCGUAUGUACCGAAUCGGGGAAAAAGGGGAAAAAGGGGAAAAAAAGGGGAAAGUAUUAUGUUACGCCGUUCGGAUCUGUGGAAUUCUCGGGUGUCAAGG	0.797
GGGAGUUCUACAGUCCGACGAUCUGGGAGGUGGAUUUUGUUUAUUUUUUUAGCACAUUUCCAGGGGUGGGAAUUUUUUUUUAAUAUGUGUCAUGAAUAAAGUUGUUUUUGAAAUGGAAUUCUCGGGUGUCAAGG	1.89
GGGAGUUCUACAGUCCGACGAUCUGUGUGUUAUAUAUUUAUUUUUAAUUGCAGAUGACAGGAUUGGACAUUGAGAAGGACCAGAUUAUUGAGAUGGCCUGUCUGAUAACUGACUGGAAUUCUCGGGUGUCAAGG	-0.765
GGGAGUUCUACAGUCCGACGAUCUCAAGUCCUGUGCUACACAUCGUAUGUACCGAAUCGGGGUUGGGGUUGGGUUGGAAAGUAUUAUGUUACGCCGUUCGGAUCUGCACUUCCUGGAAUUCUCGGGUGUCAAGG	-0.147
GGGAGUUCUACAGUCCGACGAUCUCCUGUGCUACACAUCGUAUGUACCGAAUCGGGAAAAAAAGGGAAAAAAAGGGAAAGGGAAAGUAUUAUGUUACGCCGUUCGGAUCUGCAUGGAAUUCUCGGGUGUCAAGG	0.0827
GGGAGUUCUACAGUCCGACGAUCAUGAAGAUGAAGAAGAGGAUGAUGAGGACGAGGAUGACGACGACGACGAAGAUGAUGAAGAUGAUGAUGAUGAAGAUGAUGAGGAGGAGGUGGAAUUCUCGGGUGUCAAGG	-0.0947
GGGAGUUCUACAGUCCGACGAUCCUUGACCCUCAACACCAACCAUGGGCAUAUCCUGGUGGAUUACUCCAAGAACCUGGUGACGGAGGACGUGAUGCGGAUGCUGGUGGACUUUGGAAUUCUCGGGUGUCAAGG	-0.404

Study 2 — technique: universal PBM; molecule type: double-stranded DNA, one strand shown; matrix: in vitro; tested at: 600 nM; reading: higher = stronger binding
Target: Sal-like protein 4, full length isoform A (SALL4, Homo sapiens, UniProt Q9UJQ4, residues 1-1053)
UniProt Q9UJQ4, sequence (whole entry, looked up): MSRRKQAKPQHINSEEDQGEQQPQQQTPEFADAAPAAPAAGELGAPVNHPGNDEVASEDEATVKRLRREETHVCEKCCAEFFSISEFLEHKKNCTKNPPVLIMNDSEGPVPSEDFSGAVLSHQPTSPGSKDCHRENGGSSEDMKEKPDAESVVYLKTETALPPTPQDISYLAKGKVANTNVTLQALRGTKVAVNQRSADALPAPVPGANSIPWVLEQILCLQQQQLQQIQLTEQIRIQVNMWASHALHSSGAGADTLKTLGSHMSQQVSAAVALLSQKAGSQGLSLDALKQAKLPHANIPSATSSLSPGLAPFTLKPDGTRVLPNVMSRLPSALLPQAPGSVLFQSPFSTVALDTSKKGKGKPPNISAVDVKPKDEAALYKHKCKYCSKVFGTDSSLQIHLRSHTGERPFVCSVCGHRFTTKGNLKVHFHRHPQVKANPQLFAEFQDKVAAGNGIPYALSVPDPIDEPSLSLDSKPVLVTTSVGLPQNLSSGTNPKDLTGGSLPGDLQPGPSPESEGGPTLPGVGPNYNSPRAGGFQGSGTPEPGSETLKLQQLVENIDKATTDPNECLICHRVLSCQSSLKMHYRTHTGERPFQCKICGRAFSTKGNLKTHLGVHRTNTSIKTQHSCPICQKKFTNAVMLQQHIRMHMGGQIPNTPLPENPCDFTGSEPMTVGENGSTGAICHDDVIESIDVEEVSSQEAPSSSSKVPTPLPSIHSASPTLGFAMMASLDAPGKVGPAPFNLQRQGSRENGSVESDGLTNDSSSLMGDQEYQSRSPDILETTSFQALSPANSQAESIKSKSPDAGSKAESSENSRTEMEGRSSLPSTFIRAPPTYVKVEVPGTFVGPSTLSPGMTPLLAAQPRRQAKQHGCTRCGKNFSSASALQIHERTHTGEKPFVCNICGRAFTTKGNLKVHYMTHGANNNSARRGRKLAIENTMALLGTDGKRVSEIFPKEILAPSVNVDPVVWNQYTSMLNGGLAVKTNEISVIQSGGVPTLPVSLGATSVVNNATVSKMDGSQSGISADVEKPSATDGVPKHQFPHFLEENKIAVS
Notes: 8-mer, flanks averaged, mean of replicates
Oligonucleotide	E-score
CACGGGCC	-0.435
ACATAACC	0.239
ACGCTCAA	-0.00205
CTGACTAA	0.0935
TCCTCAAA	0.082
CATTCTCA	0.195
CTATCGGA	0.055
CCCTTGAA	-0.0423
ACCCATCT	0.0335
ATAAACTG	0.271
CCCCCAGC	-0.35
AGAATAAT	0.248
AACCGCGT	-0.0951
CAAGACGC	-0.0974
ACTGATTC	0.0736
ATCCCTAA	-0.102
GAATTTCA	0.22
GACAAAGA	0.0895
AGCCCAAT	-0.0472
CCTGAAAA	0.158
GTAATAGA	0.22
AACGAACG	0.0178
GACGGCCC	-0.386
AGCAAATG	0.0575
GACTCGAC	-0.09

Study 3 — technique: protein binding microarray; molecule type: double-stranded DNA, one strand shown; matrix: in vitro; tested at: not given; reference: not given; reading: higher = stronger binding
Target: Histone acetyltransferase KAT6A, winged helix 2, GST fusion (KAT6A, Homo sapiens, UniProt Q92794, residues 85-181)
Notes: 8-mer, flanks averaged, mean of 2 arrays, mostly near background
Residues (chain): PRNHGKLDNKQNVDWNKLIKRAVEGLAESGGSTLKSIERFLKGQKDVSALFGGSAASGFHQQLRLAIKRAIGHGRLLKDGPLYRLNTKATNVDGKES
Oligonucleotide	E-score
AAAGGTGA	-0.103
AGGGTTTG	0.026
GCAATCGA	-0.00333
CACATGCG	0.000205
AATTTTAG	-0.0375
TACCATCA	-0.182
AATCATGA	0.0919
GACAAATA	-0.124
GAATATCA	-0.0561
AGGTGCCG	-0.0139
GAACTTCC	-0.147
AGTCGATC	-0.0025
ATTTCGAA	0.0684
AAAGTAGC	-0.0622
AACATCTT	-0.0471
AGTTGAAT	0.0787
GAGCTCAC	-0.0616
CAGCGACC	0.147
CCCCTACC	-0.0394
GTAATTTA	-0.00752
GGTTAAGA	-0.0187
CAAGGGCC	0.0644
GAGGACAA	-0.0996
GGAGAACA	-0.0486
AATCCAAC	-0.00814

Study 4 — technique: RNA Bind-n-Seq; molecule type: RNA; matrix: in vitro; tested at: 365 nM; reference: no-protein control; reading: higher = stronger binding
Target: RNA binding protein fox-1 homolog 2, RRM domain, GST-SBP tag (RBFOX2, Homo sapiens, UniProt O43251-10, residues 100-194)
Notes: natural RNA segment, single round, ends assumed
Construct (chain): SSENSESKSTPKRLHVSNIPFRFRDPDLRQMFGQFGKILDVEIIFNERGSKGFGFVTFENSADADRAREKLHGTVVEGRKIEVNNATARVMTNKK
Oligonucleotide	RBNS enrichment (R)
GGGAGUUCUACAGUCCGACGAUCGGCGGAAGUAAAGGCUCAGGAGACAGCCACCACAGAGGCAGAUGCCAAACCAAAGACAGAUUUGCUUAACCAACAGACGGGUGCUGACCCAUCCAGAACCACGUGCACGAUGGAAUUCUCGGGUGCCAA	2.43
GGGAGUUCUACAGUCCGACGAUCUCCUUUGUAGCUUCAUAUGUGGCUUUUAAAAUGUCAUUUCUCUAGGGUAUCUUUUUAUAUCACAGCCUAGGACUCUUCCAUCUUAUAAUUACAAGCUGACAGUGUACAAUUGGAAUUCUCGGGUGCCAA	0.316
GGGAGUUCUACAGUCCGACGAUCAUACAAGCCAAAGUGGCAUGUUUUGUGCAUUUGUAAAUGCUGUGUUGGGUAGAAUAGGUUUUCCCCUCUUUUGUUAAAUAAUAUGGCUAUGCUUAAAAGGUUGCAUACUGUGGAAUUCUCGGGUGCCAA	1.02
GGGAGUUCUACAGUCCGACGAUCACCAGGGGGUUAAUCUUGGCUCAGUUUCCUAAAAAGCAUUGAUUAAUUUAACUGGCUUUUAAAUAUCCCCUUCCGCUGAUAUUUGUUGUCAGCUGCCUACAGUUUAAUAUUGGAAUUCUCGGGUGCCAA	1.07
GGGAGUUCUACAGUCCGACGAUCUAUUGAACAUAAUAACCAGUGUUUUUUAAAGACUUUUUUGUCAGGGUGCAGUAAAAUUCUCCAAUUACUUUUAUUCAUUUAUCUGCUUCCUAGUUUUAUUUUAGCCUUUAUGGAAUUCUCGGGUGCCAA	1.16
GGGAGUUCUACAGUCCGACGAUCGGCCUUUCCUGUACACGCCUGUGACUGGCAGCCACAUGGUUUCUGCUUAUUAACGUGAGCCUCCCUGUUGGUGAAAUGGUGUAGCUGGGAACGGACAGCAAAGGUGCAGGUGGAAUUCUCGGGUGCCAA	0.492
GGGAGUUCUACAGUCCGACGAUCUCGGGGGCUUACUUGUGCAGUACUAAAAUCAAAGGAGCUGGUUCUUCUUUUCUCCCAAUCUUUUCUUAGUAAUGAACACACCUACAACUAGCCUGCCACUCCCAAUCACAUGGAAUUCUCGGGUGCCAA	0.586
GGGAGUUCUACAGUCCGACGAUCAUUCAAAAACUUGAAAUGCAGGACGCCAUUAAGUGUCUGUUUAUAUUUUUGGAAUAUUUGUAUUACUUACAAUUAAUUAAUAAAAGUGGGUUUAAAAAACCUUUCCAGGAUGGAAUUCUCGGGUGCCAA	0.464
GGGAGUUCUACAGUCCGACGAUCUACUGGGUUUUAACUUAUUUUUCUUUAAUAAAAUACAUUGUUUUCCUAAGUUUUGGGGUUACCCUAUCUGCUUUGAGAGACAAAUACAAAAGCUAAAUGGAAGAGAUUCUUGGAAUUCUCGGGUGCCAA	0.401
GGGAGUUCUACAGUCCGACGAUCGAUUCGUACCGAAGAACCUUGUGGAAUCCCUUUGCUUAGGCCCAACCUGGUCGAUAGCUCGAGAAAGAAUUUUUUCCAAGGAAAUGUCUCGGAUAUGGGUACUGUAUUUGUGGAAUUCUCGGGUGCCAA	0.337
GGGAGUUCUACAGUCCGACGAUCGUUUCUCUGUGCCCUAAGAGCACAUUGUUUAUUAGCCAGGGUGGAGCGUUUUCGACCUUAUUAAACCUCUUUUAGUGCUUCUAAGCAAGUCAGGUCUGUGGCUCUGAGGCUGGAAUUCUCGGGUGCCAA	0.413
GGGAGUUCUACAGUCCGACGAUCAUAUGCCCAAAACUCAGAUCUUUAGAAGUGAUCUUUCACUUGCUUAAUUGCAAAGUAGUUCAAAGCAAAGAAAAGCUUACAUUAAUCCCUAGAUUUUAGAACUGUAUGUAUGGAAUUCUCGGGUGCCAA	0.57

Single results of other studies
Substance	target	test	test system	setting	scale	measurement	result
PhoQ, residues 284 288 289 292 302 303 ASSHFY	PhoP, residues 12 14 15 18 19 VGHWL (Escherichia coli, UniProt P23836)	Sort-seq, refers to: YFP reporter	E. coli	PhoQ-PhoP variant library, added: 10 µM Mg2+	reference: high Mg2+ state, higher = stronger signaling	fold induction	6.49

A few entries again (study 2):
Oligonucleotide	E-score
CTATCGGA	0.055
CCCTTGAA	-0.0423
ACCCATCT	0.0335
ATAAACTG	0.271
